Assay results of several laboratories.
Every numbered part comes from another study and shows a few of its results, in no order. Substitutions count along the parent as printed.

Block 1
Target: RING finger protein unkempt homolog, zinc fingers 1-6, GST-SBP tag (UNK, Homo sapiens, UniProt Q9C0B0, residues 30-357)
Method: RNA Bind-n-Seq
Form: RNA
Matrix: in vitro
Tested at: not given
Notes: RNA with constant flanks, human and mouse sites, ends assumed
Reference: input RNA pool
Direction: higher = stronger binding
Shared flanks, not repeated: GGGAGUUCUACAGUCCGACGAUC … CAACAGAGGAUUGAGCAUCA
Construct (chain): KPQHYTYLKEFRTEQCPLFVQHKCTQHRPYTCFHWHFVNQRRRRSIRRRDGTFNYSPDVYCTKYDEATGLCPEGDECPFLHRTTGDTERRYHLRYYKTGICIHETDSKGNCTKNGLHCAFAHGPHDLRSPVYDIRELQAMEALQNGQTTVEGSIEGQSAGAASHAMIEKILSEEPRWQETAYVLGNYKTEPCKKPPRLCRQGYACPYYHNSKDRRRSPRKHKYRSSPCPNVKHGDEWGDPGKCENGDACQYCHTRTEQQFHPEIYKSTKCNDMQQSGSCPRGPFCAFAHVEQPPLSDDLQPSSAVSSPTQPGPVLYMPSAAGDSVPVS
`AAUACAGUUUUUCAUUCUAUUCUUGCUGGAUUAGCGUGUGGUCUUGGAACAUGGUAUCUGCUCCCAAAUAGAAUAACCUUGCUGUAUGGCAGUACAGGAGGCACUGCUCUACUAUUCUUC` gave a bound/input enrichment of 0.756 ratio.
For `UUAGUGGUGACUUCAUUGUGCAAAUCAUCUUCUCUGCCAGCUUCCCAGAACAAUCUGCGGCACUAGGUCCUACCUCCAGCCAAUGAAUGGGAUCAUUCUGGAUGUCACCAGCCCAAUAGG`, the bound/input enrichment was 0.225 ratio.
The bound/input enrichment of `GGGAAAAGCCUGCAGGGGGAUCCUGCAGCUGCGCUGCUUGAGGUGUUGGAUCCUGAACAAAACCAUAACUUCACAGAUCACUAUCUAAAUGUGGCCUUUGACCUUUCCCAAGUUCUUUUC` is reported as 0.0678 ratio.
With `CCUACUGUAAACAACUCAGGGCAGUAUUCUCGAUAUCCUUACAGUAACCUAAAUCAGGGAUUAGUUAACAGUACAGGGAUGAAUCAAAAUUUAGGCCUUACAAACAGUACUCCAAUGAAU` the bound/input enrichment was 0.766 ratio.
The bound/input enrichment of `GAAACUAUUCCUAAAGAGGAGAAAGCUGAAAAGGAAGCUCGGAGAUCAUCUCUUGAGAAACAUAGAAAAGAAAAGCCUUUUAAAACCGGGAGAGGCAGAAUUUCCACUCCUGAAAGAAAA` is reported as 0.266 ratio.
`UUUUCAUGCCCGGCCUUUGUUCCUCCAUAAAUGUGUCCUUUAGUUUCAAACAGAUCUUUAUAGUUCGUGCUUCAUAAGCCAAUUCUUAUUAUUAUUUUUGGGGGACUCUUCUUCAAAGAG` gave a bound/input enrichment of 7.2 ratio.

Block 2
Target: ABI1, truncated, D143A, DHFR fusion (Arabidopsis thaliana)
Method: DHFR PCA, deep sequencing
Matrix: yeast
Notes: methotrexate growth selection, single substitutions
Added: (+)-ABA 17 µM
Reference: wild-type fitted maximum
Direction: higher = stronger binding
Starting sequence: PYL1, truncated, DHFR fusion (Arabidopsis thaliana); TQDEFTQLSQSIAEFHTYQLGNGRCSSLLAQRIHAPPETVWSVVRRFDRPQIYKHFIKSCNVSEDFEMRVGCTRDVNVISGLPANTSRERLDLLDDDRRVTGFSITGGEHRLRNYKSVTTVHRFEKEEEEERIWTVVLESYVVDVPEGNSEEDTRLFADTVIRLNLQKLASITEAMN; partner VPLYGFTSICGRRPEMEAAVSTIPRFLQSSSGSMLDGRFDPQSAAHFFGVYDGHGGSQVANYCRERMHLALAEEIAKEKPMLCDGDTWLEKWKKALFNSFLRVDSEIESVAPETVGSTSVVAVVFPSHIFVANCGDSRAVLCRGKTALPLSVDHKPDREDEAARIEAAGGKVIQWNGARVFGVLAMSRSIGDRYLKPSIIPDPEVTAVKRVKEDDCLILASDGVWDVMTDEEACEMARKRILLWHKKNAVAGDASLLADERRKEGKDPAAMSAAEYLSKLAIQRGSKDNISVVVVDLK
Under “relative binding score”, `F103Y` is recorded as 70%.
For `E109L`, “relative binding score” read 45%.
`F124C` — result for “relative binding score”: 93.5%.
For `I162W`, “relative binding score” read -17%.
Under “relative binding score”, `L82W` is recorded as 37.6%.

Block 3
Target: CCND3, cyclin fold, Cln2 fusion (human)
Method: yeast growth competition, sequencing
Matrix: yeast
Notes: weak parent motif
Reference: not given
Direction: higher = stronger binding
Starting sequence: CDKN1B docking peptide (human); PSACRNLFGPVDH; partner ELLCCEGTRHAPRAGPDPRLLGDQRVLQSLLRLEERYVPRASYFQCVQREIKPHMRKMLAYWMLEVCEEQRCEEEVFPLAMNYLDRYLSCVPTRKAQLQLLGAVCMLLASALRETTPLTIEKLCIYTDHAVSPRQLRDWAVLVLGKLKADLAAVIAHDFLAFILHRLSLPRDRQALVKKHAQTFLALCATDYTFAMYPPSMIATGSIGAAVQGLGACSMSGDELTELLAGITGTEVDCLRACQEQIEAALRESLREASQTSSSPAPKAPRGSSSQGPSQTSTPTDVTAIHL
For `PSACRNLRGPVDH [F8R]`, “normalised enrichment score” read 0.147.
Under “normalised enrichment score”, `PQACRNLFGPVDH [S2Q]` is recorded as 0.0758.
Under “normalised enrichment score”, `PSACRNLFGPDDH [V11D]` is recorded as 0.185.
`PGACRNLFGPVDH [S2G]`: “normalised enrichment score” 0.0515.
Under “normalised enrichment score”, `PSACKNLLGPVDH [R5K F8L]` is recorded as 0.0522.
For `PSACMNLFGPVDH [R5M]`, “normalised enrichment score” read 0.0574.
`PSACRNLFGPVGH [D12G]`: “normalised enrichment score” 0.148.
For `PSACRNLFGPWDH [V11W]`, “normalised enrichment score” read 0.147.
`PMACRNLFGPVDH [S2M]`: “normalised enrichment score” 0.143.

Mixed results
The fold induction of `PhoQ, residues 284 288 289 292 302 303 SIHLQL` is reported as 0.736 (PhoP, residues 12 14 15 18 19 DLLYY (Escherichia coli, UniProt P23836); Sort-seq, refers to: YFP reporter; E. coli; PhoQ-PhoP variant library, added: 10 µM Mg2+; reference: high Mg2+ state, higher = stronger signaling).

Repeated from above (block 2):
Under “relative binding score”, `F103Y` is recorded as 70%.
For `E109L`, “relative binding score” read 45%.
`F124C` — result for “relative binding score”: 93.5%.
